Measured values collected from several papers.
Numbered parts are unrelated; each lists some results of a single study.

Series 1 — method: protein binding microarray; form: double-stranded DNA, one strand shown; sample: in vitro; tested at: not given; relative to: not given; reading: higher = stronger binding
Target: Histone acetyltransferase KAT6A, both winged helices, GST fusion (KAT6A, Homo sapiens, UniProt Q92794, residues 1-181)
Setting: 8-mer, flanks averaged, mean of 2 arrays, mostly near background
Residues (chain): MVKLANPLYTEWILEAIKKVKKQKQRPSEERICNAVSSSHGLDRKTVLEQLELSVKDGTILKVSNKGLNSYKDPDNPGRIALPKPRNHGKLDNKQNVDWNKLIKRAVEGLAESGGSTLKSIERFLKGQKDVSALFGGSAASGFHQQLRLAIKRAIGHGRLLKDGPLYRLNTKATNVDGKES
Oligonucleotide	E-score
GCACCCCA	-0.0887
CCCAGTAG	-0.088
ACCCGACA	0.0934
CGCATCTC	0.188
TTAACTAA	0.0798
AGTCGATG	-0.176
CACTTAAA	-0.163
CTACTCTC	-0.202
GAAGACGA	-0.0353
CAAAAGTG	-0.0436
GGGTAGCA	0.131
GACCAAGC	0.053
CACTTCGA	-0.108
GCAGAGCC	0.0597
TAATTGAA	-0.0461
GAGCAGAA	-0.0116
GCAGTCCC	0.0241
AGAGTTGA	-0.143
AATGCAAG	-0.129
AGTTGGCC	-0.17
AGGAATTC	-0.0707
CTCAACCC	-0.172
CATAACTA	0.0302
GATTTGTA	-0.0686
AGCATTTC	-0.154

Series 2 — method: protein-binding microarray; form: double-stranded DNA, one strand shown; sample: in vitro; tested at: 0.8 µM; setting: whole 60-bp probe, no competitor; reading: higher = stronger binding; all sequences stand within: … GTCTTGATTCGCTTGACGCTGCTG
Target: Centromere-binding protein 1, full length, N-terminal tag (CBF1, Saccharomyces cerevisiae, UniProt P17106, residues 1-351)
Chain of UniProt P17106 (whole entry, looked up): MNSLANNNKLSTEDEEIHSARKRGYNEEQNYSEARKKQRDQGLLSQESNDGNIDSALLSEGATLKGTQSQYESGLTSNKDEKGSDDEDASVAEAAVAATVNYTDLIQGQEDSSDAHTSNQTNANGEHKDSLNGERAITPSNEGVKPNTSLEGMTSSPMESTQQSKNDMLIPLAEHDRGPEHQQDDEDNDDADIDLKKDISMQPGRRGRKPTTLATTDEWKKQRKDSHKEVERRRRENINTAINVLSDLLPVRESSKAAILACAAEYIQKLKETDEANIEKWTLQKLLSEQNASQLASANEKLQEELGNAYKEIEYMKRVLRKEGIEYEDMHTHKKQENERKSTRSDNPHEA
Oligonucleotide	fluorescence intensity [a.u.]
GAAGATGGCCTATGTCATGTGTCTAAAAAGTTTTAG	1260
GAATCCATTTCATCGTTCGTGACACTTATAAACTAG	675
CTATTCCTCTCTGGCCAGGTGACTTTCTGAATTTTC	1080
GAAACATTACAATCTCTGATGCTTTCACGTAGATAG	554
GAAGGGCATGTCTCACACACCACCGCCTTCCACTAG	526
CCTAACTACTATAATGGCACGTGATAGCTTCGTACA	13200
GAAAAAGATACGAATCACGGCAAACTATATTCATAG	574
GAAACATCATCAGGTGATGTCAACTCAGCTTATTAG	3120
GAATGATAACGTTCTCACCAGATTATGAAATCATAG	517
CCTAACTACTATAAGCGCGTGACATAGCTTCGTACA	1710
GAAATAATCGGTCACCTCGTGTGTCGTGATAAATAG	972
GAACCATTTTTACACGTGCTCTTTCTTGGCAGCTAG	7260
GAAACAAAAAAGCATCAGGTATTTAATGGATAATAG	555
CTATGCTGGTAATCTCAGCTGAAAGGCTGCCTTTTC	500
GAAGAGAGTAACAAGCATGTGAACTTGTTGTTCTAG	594
CTACAAAGCTGTCTCCACGTGGAAAGTTTATTTTTC	2660
GAATAAAGTACAGATCACGTAACGGAATGCTACTAG	613
GAAATCAATATAAGCAACGTGAAACGATCGAAGTAG	587
GAAAAGTATTTTCATATGATGATGCTGACTTAATAG	596

Series 3 — method: RNA Bind-n-Seq; form: RNA; sample: in vitro; tested at: 365 nM; relative to: no-protein control; reading: higher = stronger binding
Target: RNA binding protein fox-1 homolog 2, RRM domain, GST-SBP tag (RBFOX2, Homo sapiens, UniProt O43251-10, residues 100-194)
Setting: natural RNA segment, single round, ends assumed
All sequences stand within: GGGAGUUCUACAGUCCGACGAUC … UGGAAUUCUCGGGUGCCAA
Target sequence (chain): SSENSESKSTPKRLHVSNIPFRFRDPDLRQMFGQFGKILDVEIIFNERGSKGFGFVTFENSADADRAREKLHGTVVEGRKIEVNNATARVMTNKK
Oligonucleotide	RBNS enrichment (R)
GACCACGGUUCUGAGCAAGUCUGCACAACAGCACCAAAAGGAGACCCCGAGGCCCAAAGAUAAACUGCUACAAUGCUCCAGAACAAUCUUUUCUCUCCUCCCCAGAGGCC	0.408
ACCUAGGUCUUGUCUUUCAACUUGUUGGUAGAAGUUACAAAUUAUUCUCAAAACUGUCUGUCUCAUCAUGAGGAAAAAGGAACUUUCUUUUGUUCCUAUUCAGGACUUGA	0.279
AUGUCCUAUAAAUGCACCUCCUGUCAAAACCAUGCCUGAGAGGUCCCGGCUGGGAGUGACAGGGUGCUUCUUAGAUUCUAUUGGUCCUUCUCUCAUUCUCCGAACUUACU	0.374
GCUAGUCAGGAUUGAUAAACAGCUGGGCACACCGAAACAGUGUACCAACGAAUUCACCAACCAGGGGUUUCUUUCCCUACCCUUUGUGAAAACCAAUCAAUUACUAGAUG	0.264
CGUUUGGACAGCAGUGUUCUGUGGGCCCUCCCCUCCCCCAUAUCCUGCACCCCCUCAUAGCAGUAGUGGCUUCGCCAUUCUGUUUUCUGCAGUGUCCUGUACAAAACUGU	0.42
ACCUUAGGGACACCCUGCAGAGUAUGUUCAGUGUCUCGUCUUGGUGUUUCACAGUUCCAUGGUGAUACCUUCCCACACAUGAUUUCCUUUGUACAUUGCUUUUCAUUUUC	0.665
GCAGGUGGCAGCUGCAGCCCUCCUGUGCUUGUGUACGCAUGACUGCAUGGACCAGCACCACUGCCUGGCCAUAACUUCAGUGUCUCCUAACUGGGUGUGCUUUAUAGCUC	4.12
AGGGGUAACAACUAACAAACACCCAAACUGUUUGGAUUGAUUGCUUUAAAAAACAAACCUGGCUCUUACCUUUGAUCUUUUCUUCCCCAGAAAUAGUAAACUUGCAGCUG	0.292

Series 4 — method: RNA Bind-n-Seq; form: RNA; sample: in vitro; tested at: 200 nM; setting: whole 134-nt RNA, ends assumed; together with: 150 mM KCl; relative to: input library; reading: higher = stronger binding
Target: Ras GTPase-activating protein-binding protein 1, full length (G3BP1, Homo sapiens, UniProt Q13283)
Chain of UniProt Q13283 (whole entry, looked up): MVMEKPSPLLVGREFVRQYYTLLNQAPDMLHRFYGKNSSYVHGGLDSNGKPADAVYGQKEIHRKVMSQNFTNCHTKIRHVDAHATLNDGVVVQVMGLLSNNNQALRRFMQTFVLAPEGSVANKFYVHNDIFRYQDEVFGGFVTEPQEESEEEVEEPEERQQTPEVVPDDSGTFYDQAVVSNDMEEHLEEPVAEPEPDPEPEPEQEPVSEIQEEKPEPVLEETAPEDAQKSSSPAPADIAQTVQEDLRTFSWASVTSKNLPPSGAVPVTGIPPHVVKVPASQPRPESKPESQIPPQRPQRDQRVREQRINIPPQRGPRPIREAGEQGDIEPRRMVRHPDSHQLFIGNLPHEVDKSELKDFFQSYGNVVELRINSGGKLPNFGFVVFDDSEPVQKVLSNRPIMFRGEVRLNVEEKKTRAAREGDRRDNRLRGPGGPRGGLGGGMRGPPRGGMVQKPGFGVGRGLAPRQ
All sequences stand within: GGGAGUUCUACAGUCCGACGAUC … UGGAAUUCUCGGGUGUCAAGG
Oligonucleotide	log2 enrichment
UGUGUGACUUCCUUGGAGAGAAGAUUGCAUCUGUUUUGGGUAUCAGCACCCCAAAGUACCAAUAUGCCAUUGAUGAAUAUUAUCGGAUGA	0.65
CACAGACAACACGCACCCACACAGACACAGAGGGAAGGGGUUGGGAUGGGGACAGGGUGCACAGCAGGGCGGGGUACGACCCCAGCCCCU	1.84
UACCUUUAGAGGAGGAUCUGAUGGAUAUGGCAGUGGACGUGGAUUUGGGGAUGGCUAUAAUGGGUAUGGAGGAGGACCUGGAGGUGGCAA	0.37
UCAAGUCCUGUGCUACACAUCGUAUGUACCGAAUCGGCCCGGCCCGGCCCGGGGAAAGUAUUAUGUUACGCCGUUCGGAUCUGCACUUCC	-0.561
UCCUGUGCUACACAUCGUAUGUACCGAAUCAAAUUUUUUUAAACCCCCAAACCCCCAAAAAAGUAUUAUGUUACGCCGUUCGGAUCUGCA	-0.198
CACAGACAACACGCACCCACACAGACACAGAGGGAAGGGGUUGGGAUGGGGACAGGGUGCACAGCAGGGCGGGGUAAAACCCCAGCCCCU	2.02
CCUCAAGUCCUGUGCUACACAUCGUAUGUACCGAAUCGGGCGGGCGGGGCGGAAAGUAUUAUGUUACGCCGUUCGGAUCUGCACUUCCAG	0.933
UCAAGUCCUGUGCUACACAUCGUAUGUACCGAAUCGGCCCGGGCCCGGGCCCGGAAAGUAUUAUGUUACGCCGUUCGGAUCUGCACUUCC	-1.39
UAACUUUAGAGGACGAUCUGAUGGAUAUGGCAGUGGACGUGGAUUUGGGGAUGGCUAUAAUGGGUAUGGAGGAGGACCUGGAGGUGGCAA	0.671

A few entries again (series 4):
Oligonucleotide	log2 enrichment
UGUGUGACUUCCUUGGAGAGAAGAUUGCAUCUGUUUUGGGUAUCAGCACCCCAAAGUACCAAUAUGCCAUUGAUGAAUAUUAUCGGAUGA	0.65
CACAGACAACACGCACCCACACAGACACAGAGGGAAGGGGUUGGGAUGGGGACAGGGUGCACAGCAGGGCGGGGUACGACCCCAGCCCCU	1.84
UACCUUUAGAGGAGGAUCUGAUGGAUAUGGCAGUGGACGUGGAUUUGGGGAUGGCUAUAAUGGGUAUGGAGGAGGACCUGGAGGUGGCAA	0.37
UCAAGUCCUGUGCUACACAUCGUAUGUACCGAAUCGGCCCGGCCCGGCCCGGGGAAAGUAUUAUGUUACGCCGUUCGGAUCUGCACUUCC	-0.561
UCCUGUGCUACACAUCGUAUGUACCGAAUCAAAUUUUUUUAAACCCCCAAACCCCCAAAAAAGUAUUAUGUUACGCCGUUCGGAUCUGCA	-0.198
CACAGACAACACGCACCCACACAGACACAGAGGGAAGGGGUUGGGAUGGGGACAGGGUGCACAGCAGGGCGGGGUAAAACCCCAGCCCCU	2.02
CCUCAAGUCCUGUGCUACACAUCGUAUGUACCGAAUCGGGCGGGCGGGGCGGAAAGUAUUAUGUUACGCCGUUCGGAUCUGCACUUCCAG	0.933
UCAAGUCCUGUGCUACACAUCGUAUGUACCGAAUCGGCCCGGGCCCGGGCCCGGAAAGUAUUAUGUUACGCCGUUCGGAUCUGCACUUCC	-1.39
UAACUUUAGAGGACGAUCUGAUGGAUAUGGCAGUGGACGUGGAUUUGGGGAUGGCUAUAAUGGGUAUGGAGGAGGACCUGGAGGUGGCAA	0.671
